Measured values gathered from unrelated publications.
Numbered parts are unrelated; each lists some results of a single study.
UniProt P42336, sequence (whole entry, unmodified, looked up): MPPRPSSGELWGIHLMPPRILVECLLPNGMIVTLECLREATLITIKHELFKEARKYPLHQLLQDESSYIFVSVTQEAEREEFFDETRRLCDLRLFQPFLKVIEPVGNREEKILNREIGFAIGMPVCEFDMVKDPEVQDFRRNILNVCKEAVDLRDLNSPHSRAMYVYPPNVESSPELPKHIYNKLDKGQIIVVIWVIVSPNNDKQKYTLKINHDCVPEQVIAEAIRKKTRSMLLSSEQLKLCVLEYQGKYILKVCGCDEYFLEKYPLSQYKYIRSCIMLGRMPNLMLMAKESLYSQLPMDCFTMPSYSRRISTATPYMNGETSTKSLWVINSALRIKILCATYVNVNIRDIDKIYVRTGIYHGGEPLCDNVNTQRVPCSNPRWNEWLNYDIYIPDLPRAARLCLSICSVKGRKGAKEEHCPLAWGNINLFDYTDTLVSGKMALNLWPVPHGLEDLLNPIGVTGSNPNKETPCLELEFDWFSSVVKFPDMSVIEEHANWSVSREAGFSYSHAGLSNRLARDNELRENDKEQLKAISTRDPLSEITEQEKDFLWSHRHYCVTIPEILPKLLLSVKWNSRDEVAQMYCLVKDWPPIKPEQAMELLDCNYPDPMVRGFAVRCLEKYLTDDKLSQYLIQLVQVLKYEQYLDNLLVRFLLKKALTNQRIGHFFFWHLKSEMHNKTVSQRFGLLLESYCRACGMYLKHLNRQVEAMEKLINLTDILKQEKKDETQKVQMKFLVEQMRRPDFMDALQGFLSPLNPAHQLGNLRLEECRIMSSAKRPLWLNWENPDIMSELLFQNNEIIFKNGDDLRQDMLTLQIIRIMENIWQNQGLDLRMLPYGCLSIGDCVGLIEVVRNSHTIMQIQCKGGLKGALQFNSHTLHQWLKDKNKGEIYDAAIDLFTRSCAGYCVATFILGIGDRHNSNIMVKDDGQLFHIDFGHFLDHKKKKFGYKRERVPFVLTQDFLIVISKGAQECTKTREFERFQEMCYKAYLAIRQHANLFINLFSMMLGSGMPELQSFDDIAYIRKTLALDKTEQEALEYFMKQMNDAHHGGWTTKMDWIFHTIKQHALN
UniProt Q9UIK4, sequence (whole entry, looked up): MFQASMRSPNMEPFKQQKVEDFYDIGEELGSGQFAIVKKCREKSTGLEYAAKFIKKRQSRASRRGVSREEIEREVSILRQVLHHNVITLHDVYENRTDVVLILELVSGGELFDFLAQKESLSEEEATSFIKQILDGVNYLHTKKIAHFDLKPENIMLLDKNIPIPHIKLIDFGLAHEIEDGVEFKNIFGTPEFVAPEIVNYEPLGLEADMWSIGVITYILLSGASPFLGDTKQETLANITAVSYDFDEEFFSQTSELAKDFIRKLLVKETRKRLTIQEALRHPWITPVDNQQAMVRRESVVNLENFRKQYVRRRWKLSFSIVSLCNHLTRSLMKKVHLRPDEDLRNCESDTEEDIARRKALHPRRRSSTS
UniProt P07949, sequence (whole entry, unmodified, looked up): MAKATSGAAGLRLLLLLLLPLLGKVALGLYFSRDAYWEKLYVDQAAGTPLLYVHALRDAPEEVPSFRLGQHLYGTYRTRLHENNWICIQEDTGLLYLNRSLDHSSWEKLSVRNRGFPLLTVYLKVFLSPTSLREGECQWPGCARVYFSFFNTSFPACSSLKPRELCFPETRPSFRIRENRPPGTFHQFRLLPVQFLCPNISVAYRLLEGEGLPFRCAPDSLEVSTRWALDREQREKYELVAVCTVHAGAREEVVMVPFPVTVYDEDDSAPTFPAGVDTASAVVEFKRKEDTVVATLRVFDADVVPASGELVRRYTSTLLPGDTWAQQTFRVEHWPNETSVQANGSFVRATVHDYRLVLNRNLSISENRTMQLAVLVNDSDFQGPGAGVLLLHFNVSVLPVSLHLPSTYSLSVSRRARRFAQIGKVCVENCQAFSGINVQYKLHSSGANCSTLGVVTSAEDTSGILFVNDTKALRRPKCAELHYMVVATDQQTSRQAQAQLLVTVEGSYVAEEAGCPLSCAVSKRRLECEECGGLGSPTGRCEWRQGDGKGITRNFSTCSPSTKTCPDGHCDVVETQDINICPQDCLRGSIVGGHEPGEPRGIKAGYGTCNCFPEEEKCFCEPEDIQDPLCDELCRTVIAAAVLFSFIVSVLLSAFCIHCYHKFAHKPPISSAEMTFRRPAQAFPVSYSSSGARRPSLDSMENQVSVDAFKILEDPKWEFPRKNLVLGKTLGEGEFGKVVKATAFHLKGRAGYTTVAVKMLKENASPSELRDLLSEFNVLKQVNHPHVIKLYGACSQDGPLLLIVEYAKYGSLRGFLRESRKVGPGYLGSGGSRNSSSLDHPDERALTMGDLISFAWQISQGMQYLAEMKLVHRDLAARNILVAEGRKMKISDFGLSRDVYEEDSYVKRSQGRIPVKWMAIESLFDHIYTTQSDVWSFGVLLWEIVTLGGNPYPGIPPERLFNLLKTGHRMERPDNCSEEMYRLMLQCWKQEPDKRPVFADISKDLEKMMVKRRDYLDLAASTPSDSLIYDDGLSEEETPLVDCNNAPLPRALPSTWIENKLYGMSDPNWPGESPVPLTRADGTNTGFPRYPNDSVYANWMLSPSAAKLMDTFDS
UniProt O14976, sequence (whole entry, looked up): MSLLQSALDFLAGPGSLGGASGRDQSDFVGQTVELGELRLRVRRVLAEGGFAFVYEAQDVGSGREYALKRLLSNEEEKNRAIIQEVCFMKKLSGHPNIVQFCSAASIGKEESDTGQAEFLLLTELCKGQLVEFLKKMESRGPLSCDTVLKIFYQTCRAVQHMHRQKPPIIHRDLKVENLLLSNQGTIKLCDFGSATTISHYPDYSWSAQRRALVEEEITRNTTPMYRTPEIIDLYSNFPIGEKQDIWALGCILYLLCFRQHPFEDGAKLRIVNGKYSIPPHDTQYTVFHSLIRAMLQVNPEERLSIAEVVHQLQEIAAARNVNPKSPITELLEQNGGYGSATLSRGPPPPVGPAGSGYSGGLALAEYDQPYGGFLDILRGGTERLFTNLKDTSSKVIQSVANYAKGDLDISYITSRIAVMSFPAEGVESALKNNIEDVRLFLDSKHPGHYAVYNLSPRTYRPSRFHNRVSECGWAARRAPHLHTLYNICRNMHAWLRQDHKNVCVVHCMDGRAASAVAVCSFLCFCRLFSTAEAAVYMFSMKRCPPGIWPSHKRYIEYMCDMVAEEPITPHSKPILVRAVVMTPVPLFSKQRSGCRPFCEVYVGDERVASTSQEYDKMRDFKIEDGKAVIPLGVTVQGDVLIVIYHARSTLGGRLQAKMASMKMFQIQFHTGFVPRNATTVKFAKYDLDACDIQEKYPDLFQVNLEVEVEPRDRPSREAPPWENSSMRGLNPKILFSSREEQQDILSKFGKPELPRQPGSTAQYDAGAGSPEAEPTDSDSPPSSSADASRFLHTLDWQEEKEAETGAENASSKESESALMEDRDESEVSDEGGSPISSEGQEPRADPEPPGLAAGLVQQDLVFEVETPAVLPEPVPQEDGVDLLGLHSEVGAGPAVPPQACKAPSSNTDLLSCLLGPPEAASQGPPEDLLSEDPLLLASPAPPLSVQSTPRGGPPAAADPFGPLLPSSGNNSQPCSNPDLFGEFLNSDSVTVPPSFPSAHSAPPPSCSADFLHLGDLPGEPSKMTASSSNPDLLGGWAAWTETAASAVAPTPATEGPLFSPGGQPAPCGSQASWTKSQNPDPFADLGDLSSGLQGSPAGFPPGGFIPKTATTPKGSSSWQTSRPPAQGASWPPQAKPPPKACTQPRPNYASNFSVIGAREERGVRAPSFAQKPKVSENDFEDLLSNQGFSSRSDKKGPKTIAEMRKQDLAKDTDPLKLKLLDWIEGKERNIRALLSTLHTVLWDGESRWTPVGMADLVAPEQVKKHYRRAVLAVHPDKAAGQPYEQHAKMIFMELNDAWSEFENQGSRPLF
UniProt O94768, sequence (whole entry, looked up): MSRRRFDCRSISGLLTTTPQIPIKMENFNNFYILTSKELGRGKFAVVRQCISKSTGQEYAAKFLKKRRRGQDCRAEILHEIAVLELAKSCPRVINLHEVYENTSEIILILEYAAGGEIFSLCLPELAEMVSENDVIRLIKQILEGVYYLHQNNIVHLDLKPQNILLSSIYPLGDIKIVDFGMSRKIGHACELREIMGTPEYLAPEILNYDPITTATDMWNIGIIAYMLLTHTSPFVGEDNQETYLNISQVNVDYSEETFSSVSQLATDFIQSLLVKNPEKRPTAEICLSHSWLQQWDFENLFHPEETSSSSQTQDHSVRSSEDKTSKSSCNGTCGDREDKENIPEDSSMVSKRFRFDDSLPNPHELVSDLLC
UniProt Q9HCP0, sequence (whole entry, looked up): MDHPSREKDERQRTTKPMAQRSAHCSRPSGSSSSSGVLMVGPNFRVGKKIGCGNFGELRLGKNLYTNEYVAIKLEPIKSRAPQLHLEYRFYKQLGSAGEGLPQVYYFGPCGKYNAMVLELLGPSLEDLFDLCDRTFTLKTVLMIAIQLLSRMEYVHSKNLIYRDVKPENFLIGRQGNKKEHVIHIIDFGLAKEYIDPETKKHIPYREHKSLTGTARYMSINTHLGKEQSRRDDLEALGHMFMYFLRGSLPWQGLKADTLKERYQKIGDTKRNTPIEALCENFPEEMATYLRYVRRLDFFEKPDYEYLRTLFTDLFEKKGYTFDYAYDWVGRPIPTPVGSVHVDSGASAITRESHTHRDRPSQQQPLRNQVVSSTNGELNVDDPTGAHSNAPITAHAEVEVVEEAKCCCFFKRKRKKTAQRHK
UniProt Q8TBX8, sequence (whole entry, looked up): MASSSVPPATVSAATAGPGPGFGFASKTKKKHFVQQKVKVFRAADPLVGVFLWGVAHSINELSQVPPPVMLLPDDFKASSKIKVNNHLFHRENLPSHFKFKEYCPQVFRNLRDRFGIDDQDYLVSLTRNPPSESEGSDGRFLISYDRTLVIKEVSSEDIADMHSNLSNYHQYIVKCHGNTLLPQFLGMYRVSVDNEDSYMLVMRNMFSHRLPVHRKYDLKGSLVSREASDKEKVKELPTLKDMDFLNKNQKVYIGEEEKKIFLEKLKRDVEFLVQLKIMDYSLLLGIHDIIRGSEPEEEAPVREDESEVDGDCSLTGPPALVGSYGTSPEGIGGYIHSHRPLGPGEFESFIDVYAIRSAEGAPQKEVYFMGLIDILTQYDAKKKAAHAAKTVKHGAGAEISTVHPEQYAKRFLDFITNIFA

Set 1
Host: mouse
Matrix: microsomes or S9
Concentration: 2 µM
Time: 0.5 h
The remaining compound of C=C(C)C1Cc2c(C)nn(-c3cccc4ccccc34)c2C1 (stereo not shown) is reported as 0.05%.
For COc1ccc(-c2csc(/C(C#N)=C3\C=CC=CN3C)n2)cc1, the remaining compound was 0.677%.
N#Cc1nccnc1NCCc1nc2c(s1)CCCC2 has a remaining compound of 0.159%.
With CC(C)N(C(=O)COc1nc(Cl)cc(Cl)n1)c1ccccc1 the remaining compound was 14.7%.
The remaining compound of CC1=NN(c2ccc3nncn3n2)C(=N)C1C(O)C(F)(F)F (stereo not shown) is reported as 82.4%.
O=C(c1ccc(Nc2nc3ccccc3n3nnnc23)cc1)N1CCc2ccccc2C1 has a remaining compound of 6.44%.
With COc1ccc2[nH]cc(CCNC(=O)CCC(=O)N3Cc4cccn4-c4ccccc43)c2c1 the remaining compound was 3.24%.
The remaining compound of Cn1ccc2c(-c3ccc(-c4nnco4)cc3)ccnc21 is reported as 0.249%.
The remaining compound of CN(CCC1CCOCC1)S(=O)(=O)c1cnn(C)c1 is reported as 98.5%.

Set 2
SMILES: Cn1nc2c3c(cccc31)C(=O)c1ccccc1-2
Read-out: enzyme activity
Action: inhibitor
Concentration: 0.5 µM
Reference: control
The remaining activity was 88.2% (Serine/threonine-protein kinase Nek2 (NEK2, Homo sapiens, UniProt P51955)).
The remaining activity was 101% (STE20/SPS1-related proline-alanine-rich protein kinase (STK39, Homo sapiens, UniProt Q9UEW8)).
The remaining activity was 86.4% (Death-associated protein kinase 1 (DAPK1, Homo sapiens, UniProt P53355)).
Calcium/calmodulin-dependent protein kinase kinase 2 (CAMKK2, Homo sapiens, UniProt Q96RR4) — remaining activity: 74.9%.
For TGF-beta receptor type-2 (TGFBR2, Homo sapiens, UniProt P37173): remaining activity read 94.9%.
It gave 102% for remaining activity (Serine/threonine-protein kinase OSR1 (OXSR1, Homo sapiens, UniProt O95747)).
For Protein kinase C beta type, isoform beta-I (PRKCB, Homo sapiens, UniProt P05771): remaining activity read 94.7%.
It gave 104% for remaining activity (Death-associated protein kinase 2 (DAPK2, Homo sapiens, UniProt Q9UIK4)).
For cGMP-dependent protein kinase 1, isoform beta (PRKG1, Homo sapiens, UniProt Q13976): remaining activity read 93.7%.
Mitogen-activated protein kinase kinase kinase 3 (MAP3K3, Homo sapiens, UniProt Q99759) — remaining activity: 94.4%.
It gave 92.3% for remaining activity (Inhibitor of nuclear factor kappa-B kinase subunit epsilon (IKBKE, Homo sapiens, UniProt Q14164)).
G protein-coupled receptor kinase 3 (GRK3, Homo sapiens, UniProt P35626) — remaining activity: 93.6%.
It gave 85.2% for remaining activity (Mitogen-activated protein kinase 9 (MAPK9, Homo sapiens, UniProt P45984)).
The remaining activity was 96.1% (Protein kinase C alpha type (PRKCA, Homo sapiens, UniProt P17252)).
The remaining activity was 97.7% (Tyrosine-protein kinase Lyn, isoform B (LYN, Homo sapiens, UniProt P07948)).
The remaining activity was 104% (cAMP-dependent protein kinase catalytic subunit alpha (PRKACA, Homo sapiens, UniProt P17612)).
For Cyclin-dependent kinase 5, with p25 (CDK5, Homo sapiens, UniProt Q00535): remaining activity read 92.2%.
Serine/threonine-protein kinase Chk2 (CHEK2, Homo sapiens, UniProt O96017) — remaining activity: 89.8%.
For Calcium/calmodulin-dependent protein kinase type II subunit delta (CAMK2D, Homo sapiens, UniProt Q13557): remaining activity read 90%.
The remaining activity was 103% (Inhibitor of nuclear factor kappa-B kinase subunit beta (IKBKB, Homo sapiens, UniProt O14920)).
Cyclin-dependent kinase 4, with cyclin D1 (CDK4, Homo sapiens, UniProt P11802) — remaining activity: 98.9%.
TGF-beta receptor type-1 (TGFBR1, Homo sapiens, UniProt P36897) — remaining activity: 93.7%.
For Serine/threonine-protein kinase 10 (STK10, Homo sapiens, UniProt O94804): remaining activity read 94.5%.

Set 3
Compound: FC(F)(F)c1ccc2c(c1)nc(-c1cccnc1)n2C1CC1
Concentration: 1 µM
It gave 100% for remaining binding (Casein kinase I isoform gamma-1 (CSNK1G1, Homo sapiens, UniProt Q9HCP0); cell-free assay, competition with immobilised ligand).
It gave 100% for remaining binding (Mitogen-activated protein kinase 4 (MAPK4, Homo sapiens, UniProt P31152); cell-free assay, competition with immobilised ligand).
Tyrosine-protein kinase ABL1, non-phosphorylated (ABL1, Homo sapiens, UniProt P00519, T315I); cell-free assay, competition with immobilised ligand — remaining binding: 100%.
The remaining binding was 100% (Phosphatidylinositol 4,5-bisphosphate 3-kinase catalytic subunit alpha isoform (PIK3CA, Homo sapiens, UniProt P42336, H1047L); cell-free assay, competition with immobilised ligand).
For Phosphatidylinositol 4-phosphate 5-kinase type-1 alpha (PIP5K1A, Homo sapiens, UniProt Q99755); cell-free assay, competition with immobilised ligand: remaining binding read 71%.
For Tyrosine-protein kinase ABL1, phosphorylated (ABL1, Homo sapiens, UniProt P00519, F317I); binding: remaining binding read 100%.
For Serine/threonine-protein kinase Sgk1 (SGK1, Homo sapiens, UniProt O00141); cell-free assay, competition with immobilised ligand: remaining binding read 100%.
For Activin receptor type-2B (ACVR2B, Homo sapiens, UniProt Q13705); cell-free assay, competition with immobilised ligand: remaining binding read 100%.
Mitogen-activated protein kinase kinase kinase 7 (MAP3K7, Homo sapiens, UniProt O43318); cell-free assay, competition with immobilised ligand — remaining binding: 100%.
The remaining binding was 89% (Mitotic checkpoint serine/threonine-protein kinase BUB1 (BUB1, Homo sapiens, UniProt O43683); cell-free assay, competition with immobilised ligand).
For Vascular endothelial growth factor receptor 3 (FLT4, Homo sapiens, UniProt P35916); cell-free assay, competition with immobilised ligand: remaining binding read 91%.
Calcium/calmodulin-dependent protein kinase type 1B (PNCK, Homo sapiens, UniProt Q6P2M8); cell-free assay, competition with immobilised ligand — remaining binding: 100%.
It gave 100% for remaining binding (Ephrin type-B receptor 3 (EPHB3, Homo sapiens, UniProt P54753); cell-free assay, competition with immobilised ligand).
The remaining binding was 100% (Membrane-associated tyrosine- and threonine-specific cdc2-inhibitory kinase (PKMYT1, Homo sapiens, UniProt Q99640); cell-free assay, competition with immobilised ligand).
The remaining binding was 100% (Cyclin-dependent kinase 19 (CDK19, Homo sapiens, UniProt Q9BWU1); binder, KINOMEscan competition binding; reference: DMSO).
The remaining binding was 100% (Receptor-interacting serine/threonine-protein kinase 2 (RIPK2, Homo sapiens, UniProt O43353); cell-free assay, competition with immobilised ligand).
The remaining binding was 100% (Serine/threonine-protein kinase 17B (STK17B, Homo sapiens, UniProt O94768); cell-free assay, competition with immobilised ligand).
The remaining binding was 100% (Tyrosine-protein kinase SYK (SYK, Homo sapiens, UniProt P43405); cell-free assay, competition with immobilised ligand).
For cAMP-dependent protein kinase catalytic subunit alpha (PRKACA, Homo sapiens, UniProt P17612); cell-free assay, competition with immobilised ligand: remaining binding read 100%.
Tyrosine-protein kinase receptor TYRO3 (TYRO3, Homo sapiens, UniProt Q06418); cell-free assay, competition with immobilised ligand — remaining binding: 100%.
It gave 100% for remaining binding (Receptor-type tyrosine-protein kinase FLT3 (FLT3, Homo sapiens, UniProt P36888, N841I); cell-free assay, competition with immobilised ligand).
The remaining binding was 100% (Phosphatidylinositol 4,5-bisphosphate 3-kinase catalytic subunit alpha isoform (PIK3CA, Homo sapiens, UniProt P42336, E545K); cell-free assay, competition with immobilised ligand).
It gave 100% for remaining binding (Death-associated protein kinase 2 (DAPK2, Homo sapiens, UniProt Q9UIK4); cell-free assay, competition with immobilised ligand).
The remaining binding was 97% (Phosphatidylinositol 4,5-bisphosphate 3-kinase catalytic subunit beta isoform (PIK3CB, Homo sapiens, UniProt P42338); cell-free assay, competition with immobilised ligand).
For SRSF protein kinase 3 (SRPK3, Homo sapiens, UniProt Q9UPE1); cell-free assay, competition with immobilised ligand: remaining binding read 100%.

Set 4
SMILES: COc1ccc2[nH]c3c4[nH]c5ccc(OC)cc5c4c4c(c3c2c1)C(=O)NC4=O
Read-out: binding
Concentration: 1 µM
cGMP-dependent protein kinase 2 (PRKG2, Homo sapiens, UniProt Q13237) — remaining binding: 0.9%.
For Hepatocyte growth factor receptor (MET, Homo sapiens, UniProt P08581): remaining binding read 78%.
SNF-related serine/threonine-protein kinase (SNRK, Homo sapiens, UniProt Q9NRH2) — remaining binding: 56%.
It gave 41% for remaining binding (Proto-oncogene tyrosine-protein kinase receptor Ret (RET, Homo sapiens, UniProt P07949); competition with immobilised ligand).
For Mitogen-activated protein kinase kinase kinase kinase 5 (MAP4K5, Homo sapiens, UniProt Q9Y4K4); competition with immobilised ligand: remaining binding read 51%.
For Phosphatidylinositol 4,5-bisphosphate 3-kinase catalytic subunit alpha isoform (PIK3CA, Homo sapiens, UniProt P42336, Q546K): remaining binding read 91%.
The remaining binding was 0.3% (Cyclin-G-associated kinase (GAK, Homo sapiens, UniProt O14976); competition with immobilised ligand).
It gave 53% for remaining binding (AP2-associated protein kinase 1 (AAK1, Homo sapiens, UniProt Q2M2I8); competition with immobilised ligand).
Phosphatidylinositol 5-phosphate 4-kinase type-2 gamma (PIP4K2C, Homo sapiens, UniProt Q8TBX8) — remaining binding: 28%.
It gave 21% for remaining binding (Proto-oncogene tyrosine-protein kinase receptor Ret (RET, Homo sapiens, UniProt P07949, M918T)).

Repeated from above (set 4):
For Hepatocyte growth factor receptor (MET, Homo sapiens, UniProt P08581): remaining binding read 78%.
Phosphatidylinositol 5-phosphate 4-kinase type-2 gamma (PIP4K2C, Homo sapiens, UniProt Q8TBX8) — remaining binding: 28%.
For Phosphatidylinositol 4,5-bisphosphate 3-kinase catalytic subunit alpha isoform (PIK3CA, Homo sapiens, UniProt P42336, Q546K): remaining binding read 91%.
cGMP-dependent protein kinase 2 (PRKG2, Homo sapiens, UniProt Q13237) — remaining binding: 0.9%.
It gave 21% for remaining binding (Proto-oncogene tyrosine-protein kinase receptor Ret (RET, Homo sapiens, UniProt P07949, M918T)).
SNF-related serine/threonine-protein kinase (SNRK, Homo sapiens, UniProt Q9NRH2) — remaining binding: 56%.
It gave 41% for remaining binding (Proto-oncogene tyrosine-protein kinase receptor Ret (RET, Homo sapiens, UniProt P07949); competition with immobilised ligand).
For Mitogen-activated protein kinase kinase kinase kinase 5 (MAP4K5, Homo sapiens, UniProt Q9Y4K4); competition with immobilised ligand: remaining binding read 51%.
The remaining binding was 0.3% (Cyclin-G-associated kinase (GAK, Homo sapiens, UniProt O14976); competition with immobilised ligand).
